Assay results pooled from the literature.
Parts stem from different laboratories: compare values within a part only. Positions count from the first letter of the parent shown.

Sample 1
Target: PABPC1L2, full length, GST fusion (mouse, UniProt A0ABA7IW68)
Method: RNAcompete
Molecule type: RNA
Matrix: in vitro
Concentration: 20 nM
Setting: 7-mer, probes averaged, single round
Baseline: mean of 7-mers
Reading: higher = stronger binding
Residues (chain): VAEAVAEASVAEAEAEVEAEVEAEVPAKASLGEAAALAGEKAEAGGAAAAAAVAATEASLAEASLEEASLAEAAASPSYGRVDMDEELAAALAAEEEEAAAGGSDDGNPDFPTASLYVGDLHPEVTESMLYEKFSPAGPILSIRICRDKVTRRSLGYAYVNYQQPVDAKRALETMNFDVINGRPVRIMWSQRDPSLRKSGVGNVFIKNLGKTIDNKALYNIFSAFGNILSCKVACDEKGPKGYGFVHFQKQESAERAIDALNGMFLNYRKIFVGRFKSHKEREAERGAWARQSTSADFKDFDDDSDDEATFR
Strand | 7-mer Z-score
CUACUCC | -0.209
UGUGACG | -0.0754
GGACCGC | -0.0808
AAGAAUC | 0.505
UCCCCCC | -0.485
UCUUCAC | -0.356
AGCUUUU | -0.0989
UAUCCGC | -0.36

Sample 2
Target: Histone acetyltransferase KAT6A, winged helix 1, GST fusion (KAT6A, Homo sapiens, UniProt Q92794, residues 1-85)
Method: protein binding microarray
Molecule type: double-stranded DNA, one strand shown
Matrix: in vitro
Concentration: not given
Setting: 8-mer, flanks averaged, mean of 2 arrays, mostly near background
Baseline: not given
Reading: higher = stronger binding
Construct (chain): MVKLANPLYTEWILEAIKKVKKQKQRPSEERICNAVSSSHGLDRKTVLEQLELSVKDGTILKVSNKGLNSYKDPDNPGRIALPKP
Strand | E-score
CATGTCTC | -0.0501
TGCACTAA | -0.0452
TAGGGTGA | -0.28
GCTGTAAA | -0.24
AGGCGGAT | 0.161
GCCCGCAA | 0.191
CGTCCCAG | -0.129
AGTTAACA | -0.108

Mixed results
P1: PafA, mature enzyme, eGFP fusion (Elizabethkingia meningoseptica, UniProt Q9KJX5); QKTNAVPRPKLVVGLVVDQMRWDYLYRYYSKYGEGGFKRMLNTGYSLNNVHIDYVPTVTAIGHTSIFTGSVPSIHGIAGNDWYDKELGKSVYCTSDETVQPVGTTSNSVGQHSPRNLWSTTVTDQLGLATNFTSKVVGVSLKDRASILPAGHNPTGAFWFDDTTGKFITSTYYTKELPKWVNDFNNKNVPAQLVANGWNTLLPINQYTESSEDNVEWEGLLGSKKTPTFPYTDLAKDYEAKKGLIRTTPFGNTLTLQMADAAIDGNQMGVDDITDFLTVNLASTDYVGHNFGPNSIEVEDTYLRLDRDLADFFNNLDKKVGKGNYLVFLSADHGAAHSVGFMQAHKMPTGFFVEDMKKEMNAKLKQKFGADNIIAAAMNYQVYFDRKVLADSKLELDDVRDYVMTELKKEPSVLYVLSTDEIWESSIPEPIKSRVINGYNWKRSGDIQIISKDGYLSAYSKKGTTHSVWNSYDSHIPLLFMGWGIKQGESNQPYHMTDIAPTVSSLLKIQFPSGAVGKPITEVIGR
Molecule | target | assay | test system | setting | how to read | endpoint | result
PhoQ, residues 284 288 289 292 302 303 NLAAMI | PhoP, residues 12 14 15 18 19 QQAYL (Escherichia coli, UniProt P23836) | Sort-seq, measured: YFP reporter | E. coli | PhoQ-PhoP variant library, together with: 10 µM Mg2+ | baseline: high Mg2+ state, higher = stronger signaling | fold induction | 4.75
P1 V353G | tungstate, free oxyanion | microfluidic competitive inhibition | in vitro, cell-free expressed | not given, derived from inhibition constants, unchanged parent 2230 nM | lower = stronger binding | oxyanion analog dissociation constant | 2.03 µM

A few entries again (sample 1):
Strand | 7-mer Z-score
AAGAAUC | 0.505
UCCCCCC | -0.485
